Results from different studies.
A part holds a random share of what one study measured. Values joined by “and” are separate records of one study, mostly repeats; a detail may differ. ± gives the spread as reported.
Chain of UniProt P46098 (whole entry, looked up): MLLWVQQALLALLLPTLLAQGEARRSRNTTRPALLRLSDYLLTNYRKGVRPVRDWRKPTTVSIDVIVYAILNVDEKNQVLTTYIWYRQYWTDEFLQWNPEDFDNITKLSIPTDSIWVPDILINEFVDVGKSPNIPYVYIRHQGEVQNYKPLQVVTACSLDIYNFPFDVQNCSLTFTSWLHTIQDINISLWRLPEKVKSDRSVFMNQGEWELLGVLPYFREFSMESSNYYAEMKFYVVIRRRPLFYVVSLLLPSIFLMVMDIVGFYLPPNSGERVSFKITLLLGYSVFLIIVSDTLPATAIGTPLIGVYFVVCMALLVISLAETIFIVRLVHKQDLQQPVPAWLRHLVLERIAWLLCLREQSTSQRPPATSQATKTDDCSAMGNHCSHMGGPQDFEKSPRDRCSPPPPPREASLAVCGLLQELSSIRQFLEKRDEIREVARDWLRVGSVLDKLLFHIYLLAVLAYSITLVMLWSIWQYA
Chain of UniProt Q9HBH9 (whole entry, looked up): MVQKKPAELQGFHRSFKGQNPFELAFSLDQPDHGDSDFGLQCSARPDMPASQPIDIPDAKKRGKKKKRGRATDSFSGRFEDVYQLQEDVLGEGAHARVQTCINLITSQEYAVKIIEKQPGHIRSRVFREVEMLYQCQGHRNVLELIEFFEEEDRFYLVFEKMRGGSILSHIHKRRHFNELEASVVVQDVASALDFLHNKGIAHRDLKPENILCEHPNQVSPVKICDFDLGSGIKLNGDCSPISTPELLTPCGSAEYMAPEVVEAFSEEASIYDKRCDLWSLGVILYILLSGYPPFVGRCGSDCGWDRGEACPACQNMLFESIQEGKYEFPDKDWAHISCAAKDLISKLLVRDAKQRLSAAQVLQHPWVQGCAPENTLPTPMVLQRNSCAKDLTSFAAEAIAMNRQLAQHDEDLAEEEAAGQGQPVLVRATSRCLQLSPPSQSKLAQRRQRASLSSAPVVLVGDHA
Chain of UniProt Q13976 (whole entry, looked up): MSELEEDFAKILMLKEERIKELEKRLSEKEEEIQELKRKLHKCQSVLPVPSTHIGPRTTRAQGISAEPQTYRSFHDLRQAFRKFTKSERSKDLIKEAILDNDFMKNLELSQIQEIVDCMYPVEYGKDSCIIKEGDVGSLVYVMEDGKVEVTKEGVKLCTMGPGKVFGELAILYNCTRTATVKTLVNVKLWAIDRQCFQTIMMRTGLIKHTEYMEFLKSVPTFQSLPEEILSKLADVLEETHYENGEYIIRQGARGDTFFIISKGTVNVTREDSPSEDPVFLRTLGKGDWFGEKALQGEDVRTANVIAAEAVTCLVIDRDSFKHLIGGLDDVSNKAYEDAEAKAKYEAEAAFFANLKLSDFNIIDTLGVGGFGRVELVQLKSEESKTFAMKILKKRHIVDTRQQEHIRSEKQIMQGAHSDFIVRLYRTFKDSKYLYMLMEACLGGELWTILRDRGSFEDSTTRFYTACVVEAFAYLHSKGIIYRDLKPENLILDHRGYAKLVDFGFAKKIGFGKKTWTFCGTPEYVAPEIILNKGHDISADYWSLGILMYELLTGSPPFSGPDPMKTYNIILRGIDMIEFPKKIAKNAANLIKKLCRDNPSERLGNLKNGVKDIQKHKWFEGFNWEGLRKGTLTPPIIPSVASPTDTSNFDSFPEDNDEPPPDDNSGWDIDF
Chain of UniProt Q5S007 (whole entry, looked up): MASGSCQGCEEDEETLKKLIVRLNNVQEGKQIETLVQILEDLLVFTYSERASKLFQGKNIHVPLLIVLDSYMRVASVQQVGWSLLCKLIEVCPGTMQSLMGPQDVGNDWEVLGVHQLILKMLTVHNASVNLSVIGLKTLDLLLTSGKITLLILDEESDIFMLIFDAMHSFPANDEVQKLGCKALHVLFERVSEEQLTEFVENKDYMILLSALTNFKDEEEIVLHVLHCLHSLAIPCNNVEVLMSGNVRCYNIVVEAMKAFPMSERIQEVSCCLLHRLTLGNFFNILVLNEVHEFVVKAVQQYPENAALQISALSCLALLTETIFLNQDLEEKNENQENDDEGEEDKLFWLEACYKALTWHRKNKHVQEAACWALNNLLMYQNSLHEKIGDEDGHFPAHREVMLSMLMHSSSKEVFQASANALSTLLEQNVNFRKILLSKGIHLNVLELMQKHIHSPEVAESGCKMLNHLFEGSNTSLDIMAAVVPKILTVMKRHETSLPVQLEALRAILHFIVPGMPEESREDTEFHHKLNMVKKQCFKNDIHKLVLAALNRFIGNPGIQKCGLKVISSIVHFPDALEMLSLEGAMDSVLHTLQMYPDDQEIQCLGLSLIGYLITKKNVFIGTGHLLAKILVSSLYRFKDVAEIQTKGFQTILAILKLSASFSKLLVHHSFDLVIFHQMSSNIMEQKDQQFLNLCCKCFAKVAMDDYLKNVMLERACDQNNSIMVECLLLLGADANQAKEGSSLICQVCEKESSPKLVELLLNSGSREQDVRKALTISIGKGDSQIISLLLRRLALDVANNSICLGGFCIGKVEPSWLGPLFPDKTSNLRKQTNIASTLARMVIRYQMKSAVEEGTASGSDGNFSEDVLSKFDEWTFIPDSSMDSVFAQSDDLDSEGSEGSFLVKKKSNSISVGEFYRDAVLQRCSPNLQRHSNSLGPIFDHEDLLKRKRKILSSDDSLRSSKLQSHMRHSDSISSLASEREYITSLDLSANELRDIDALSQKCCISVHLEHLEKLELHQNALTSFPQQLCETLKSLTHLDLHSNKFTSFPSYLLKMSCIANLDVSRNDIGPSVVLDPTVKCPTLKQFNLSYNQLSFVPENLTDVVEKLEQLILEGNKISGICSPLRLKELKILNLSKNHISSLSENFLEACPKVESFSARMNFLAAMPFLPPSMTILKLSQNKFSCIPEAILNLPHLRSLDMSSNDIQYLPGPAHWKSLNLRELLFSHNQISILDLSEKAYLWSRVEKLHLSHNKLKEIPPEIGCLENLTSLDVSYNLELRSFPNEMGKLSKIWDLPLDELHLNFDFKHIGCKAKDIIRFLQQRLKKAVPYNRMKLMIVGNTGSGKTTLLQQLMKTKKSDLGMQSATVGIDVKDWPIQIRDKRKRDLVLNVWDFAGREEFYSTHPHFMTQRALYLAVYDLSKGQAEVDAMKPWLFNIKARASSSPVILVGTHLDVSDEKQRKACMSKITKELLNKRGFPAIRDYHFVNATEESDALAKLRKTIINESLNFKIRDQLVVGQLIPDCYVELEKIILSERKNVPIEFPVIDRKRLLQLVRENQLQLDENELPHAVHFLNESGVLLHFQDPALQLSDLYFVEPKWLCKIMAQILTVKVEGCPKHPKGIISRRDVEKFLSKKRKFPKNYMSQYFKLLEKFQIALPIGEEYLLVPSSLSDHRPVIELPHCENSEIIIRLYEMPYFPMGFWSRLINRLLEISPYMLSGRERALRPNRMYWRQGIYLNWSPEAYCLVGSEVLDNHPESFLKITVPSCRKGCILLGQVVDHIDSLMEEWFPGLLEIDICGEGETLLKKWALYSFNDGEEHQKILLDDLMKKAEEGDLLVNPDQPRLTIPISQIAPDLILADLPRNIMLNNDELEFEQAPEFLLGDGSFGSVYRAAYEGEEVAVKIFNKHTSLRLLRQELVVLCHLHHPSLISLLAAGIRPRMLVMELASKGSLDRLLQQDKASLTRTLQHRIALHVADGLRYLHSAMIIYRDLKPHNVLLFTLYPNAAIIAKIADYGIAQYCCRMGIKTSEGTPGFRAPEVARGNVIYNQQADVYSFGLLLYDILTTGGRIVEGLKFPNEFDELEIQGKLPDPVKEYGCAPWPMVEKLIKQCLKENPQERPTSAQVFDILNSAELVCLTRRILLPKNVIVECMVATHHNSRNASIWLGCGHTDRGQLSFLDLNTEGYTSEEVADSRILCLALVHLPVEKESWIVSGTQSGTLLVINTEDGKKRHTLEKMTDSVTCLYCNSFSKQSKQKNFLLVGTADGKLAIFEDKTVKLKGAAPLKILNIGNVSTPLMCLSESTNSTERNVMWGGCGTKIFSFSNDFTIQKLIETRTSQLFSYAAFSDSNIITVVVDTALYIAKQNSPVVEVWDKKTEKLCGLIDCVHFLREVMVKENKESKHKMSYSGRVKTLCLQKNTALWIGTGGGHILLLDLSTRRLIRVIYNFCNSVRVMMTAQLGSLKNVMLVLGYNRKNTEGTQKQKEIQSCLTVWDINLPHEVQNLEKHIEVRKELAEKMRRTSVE

Sample 1
Target: RNA binding protein fox-1 homolog 2, RRM domain, GST-SBP tag (RBFOX2, Homo sapiens, UniProt O43251-10, residues 100-194)
Technique: RNA Bind-n-Seq
Form: RNA
Medium: in vitro
Tested at: 365 nM
Notes: natural RNA segment, single round, ends assumed
Relative to: no-protein control
Reading: higher = stronger binding
Endpoint: RBNS enrichment (R)
All sequences stand within: GGGAGUUCUACAGUCCGACGAUC … UGGAAUUCUCGGGUGCCAA
Target sequence (chain): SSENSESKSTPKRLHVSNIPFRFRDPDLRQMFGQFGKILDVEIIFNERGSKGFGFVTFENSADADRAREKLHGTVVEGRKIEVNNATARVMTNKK
Sequence = UGAUCGCCAAGUUCAAAGCUGUGCACAUGUGGACACUCAAUAAAUGUUUAUUGGUGAUGAGAAGCCUCUUUGUGGUCUGCCUUGCACCUCCUCUGCCUUAACCUGCUCCU; result = 0.442
Sequence = ACCAGUUGGAGCAGAUGCCUCCCCACCACCAAUUGCCAAAGGUCCAAUAAAAUGCCUCAACCACGGAUCUGCGUGUGUCAGUGAUGCCUAGCCCCGCCUUCCCCAGCAGA; result = 0.465
Sequence = AGCUGUCCCUGUCACCAAGCUCACAGUUCCUCGCCCUGGGUCUAAGGGGUUGGUUGAGGUGGAAGCCCUCCUUCCACGGAUCCAUGUAGCAGGACUGAAUUGUCCCCAGU; result = 0.263
Sequence = CCCACACCCGGGGGGCCUCUGUUCAUAGCGGCACAUGCAUUUCCCCACCGCGUCUUGUCUGCAGCUUCUUGGCCAAUGUAGUAAUGCUUUUAGUAGAGUAAUAGGUAGUA; result = 1.14
Sequence = CCAAAAGGAGGCUCCACGGGCCUCCAGGCUGCCGUGAGAAACCCAUGACACAUGCCUCUGGCAAAGCCAUCCAGCCUGUACUGCCUCCGUGGAAGGCCUAGACCCAGCAG; result = 0.471
Sequence = UGUAACAUUUUAUGCUUUUAAAAUCAAUAGAUUCAUCACCUUAGUUUUUUAAAAAAAAUCUAUAAAUAGGGUAAUUGCUGAGGUGUGCGGUUUAUCUUUGAGAUGAUAAA; result = 0.574
Sequence = ACCAAAACCACGCCGAGCACAGUGACUGUUUGACUCUUGGUAUUCAGAAGUCUGUAAUGAAUGUAAUUAUGUUUAGGCCAGUAAAUGAUGUAGAUUCGUCCUUUAUUGGU; result = 0.38
Sequence = UGGGUUCAUGACUGUGAACACAAUGUGCCCUGUGCUGGGCCACAGCUUCCUUGUUUAUGAAGUGAGGUGGUUUCUAGUGCUUUUCCAGGUUCUGCCUUAGUUAAAAACUA; result = 0.288

Sample 2
Structure (SMILES): CN1CCN(c2ccc3nc(-c4c(N)c5c(F)cccc5[nH]c4=O)[nH]c3c2)CC1
Read-out: enzyme activity
Action: inhibitor
Tested at: 0.5 µM
Relative to: control
Endpoint: remaining activity
target = MKNK2 (Homo sapiens, UniProt Q9HBH9); result = 89.6%
target = PRKG1 (Homo sapiens, UniProt Q13976); result = 81.2%
target = LRRK2 (Homo sapiens, UniProt Q5S007); result = 24.5%

Single results of other studies
Molecule = COc1cc(C(=O)N2CCC(N3CCN(C)CC3)CC2)ccc1Nc1ncc2c(n1)N(C)c1ccccc1C(=O)N2C; target or system = MARK3; assay = kinase activity; conditions = 10 µM; endpoint = remaining activity; result = 105 ± 8%
Molecule = O=C([C@H]1C[C@H](O)CN1c1ccc(Cl)cc1)N1CC2COCC(C1)N2Cc1ccc(Cl)cc1; target or system = HTR3A (Homo sapiens, UniProt P46098); assay = binding, radioligand binding; conditions = 10 µM; endpoint = inhibition; result = -7.03%
Molecule = PhoQ, residues 284 288 289 292 302 303 SCKMEA; target or system = PhoP, residues 12 14 15 18 19 HEGLL (Escherichia coli, UniProt P23836); assay = Sort-seq, refers to: YFP reporter; system = E. coli; conditions = PhoQ-PhoP variant library, together with: 10 µM Mg2+; how to read = relative to: high Mg2+ state, higher = stronger signaling; endpoint = fold induction; result = 17.4
Molecule = Cc1cc(C)c(-n2ccn3nc(-c4cccnc4)cc23)cc1NC(=O)c1cc(C#N)cc(S(F)(F)(F)(F)F)c1; target or system = U2OS, HEK-293T and MRC9; conditions = 1- or 10-fold concentration, 24 h; endpoint = cell health; result = no effect
Molecule = COc1ccc(-c2c(Nc3ccccn3)[nH]c3c(C4=CCCCC4)c(-c4ccccc4)nn3c2=O)cc1; system = human, plasma; conditions = oral, 200 mg twice daily; endpoint = dose-normalised Cmax; result = 69 ng/mL/mg and 60.5 ng/mL/mg and 75 ng/mL/mg

Repeated from above (single results of other studies):
Molecule = PhoQ, residues 284 288 289 292 302 303 SCKMEA; target or system = PhoP, residues 12 14 15 18 19 HEGLL (Escherichia coli, UniProt P23836); assay = Sort-seq, refers to: YFP reporter; system = E. coli; conditions = PhoQ-PhoP variant library, together with: 10 µM Mg2+; how to read = relative to: high Mg2+ state, higher = stronger signaling; endpoint = fold induction; result = 17.4
Molecule = O=C([C@H]1C[C@H](O)CN1c1ccc(Cl)cc1)N1CC2COCC(C1)N2Cc1ccc(Cl)cc1; target or system = HTR3A (Homo sapiens, UniProt P46098); assay = binding, radioligand binding; conditions = 10 µM; endpoint = inhibition; result = -7.03%
Molecule = Cc1cc(C)c(-n2ccn3nc(-c4cccnc4)cc23)cc1NC(=O)c1cc(C#N)cc(S(F)(F)(F)(F)F)c1; target or system = U2OS, HEK-293T and MRC9; conditions = 1- or 10-fold concentration, 24 h; endpoint = cell health; result = no effect
